Measurements gathered from unrelated publications.

For `CN1CC[C@@H](c2c(O)cc(O)c3c(=O)cc(-c4ccc(C(F)(F)F)cc4Cl)oc23)[C@@H]1CO`, “patients with adverse event” read 12.5% (measured: Hypotension; B-cell malignancies or AML; oral, 50 mg, continuous dosing).
`Cn1cc(-c2nc(N[C@@H]3CCCC[C@@H]3N)c(F)c3c2C(=O)NC3)cn1`: “patients with subdural haematoma” 7% (relapsed/refractory AML patients; oral, dose not given, phase Ib trial, all doses).
Under “patients with platelet count decreased”, `C[C@@H]1OC(=O)NN=C1c1ccc(-c2ccc(F)cc2)c(C(F)(F)F)c1` is recorded as 0% (patients, phase I trial; oral, 5 mg once daily, worst grade 1).
Under “patients with TEAE”, `O=C1Nc2cc3[nH]nc(-c4ccncc4)c3cc2CN1Cc1ccccc1` is recorded as 35% (measured: Vomiting; patients with advanced solid tumours; intravenous, dose not given, all schedules).
Under “patients with TRAE any grade”, `COc1ccc(-c2c(-c3ccc(C#N)c(F)c3)nc(N3CCC(N)CC3)n(C)c2=O)cc1F` is recorded as 6% (measured: decreased appetite; neuroendocrine neoplasm patients; oral, 60 mg, dose expansion).
`COc1c(C)cnc(Cn2cc(C#CCCOP(=O)(O)O)c3c(Cl)nc(N)nc32)c1C` — result for “patients with adverse event”: 100% (patients, advanced solid tumours; dose not given, at least one AE).
Under “patients with adverse event”, `COc1nnc2ccc(N3CCC(c4ccc(OCCN5CCN(C)C(=O)[C@H]5C)cc4)CC3)nn12` is recorded as 14.7% (measured: thrombocytopenia; patients with solid tumours or lymphoma; oral, dose not given, grade at least 3, treatment-emergent).
`COc1cc2c(Oc3ccc4[nH]c(C)cc4c3F)ccnc2cc1OCC1(N)CC1`: “patients with grade 3 Triglyceride elevation” 0% (paediatric refractory sarcoma patients; dose not given).
`N[C@@H]1c2ccccc2OC12CCN(c1cnc3c(N4CCCc5ncccc54)n[nH]c3n1)CC2`: “patients with serious TEAE” 75% (advanced solid tumour patients; oral, 150 mg once daily).
For `[O-][S+]1CCc2nc(N3CCC(c4ncc(Cl)cn4)CC3)nc(NC3(CO)CCC3)c21` (centres unmarked), “patients with soft faeces” read 10% (adverse event; idiopathic pulmonary fibrosis patients; 18 mg twice daily).
Under “patients with AE”, `CO[C@H]1C[C@@H]2CC[C@@H](C)[C@@](O)(O2)C(=O)C(=O)N2CCCC[C@H]2C(=O)O[C@H]([C@H](C)C[C@@H]2CC[C@@H](OC(=O)NCCOCCOCCOCCOCCOCCOCCOCCOCCC(=O)N3CCc4cc(Cn5nc(-c6ccc7oc(N)nc7c6)c6c(N)ncnc65)ccc4C3)[C@H](OC)C2)C[C@@H](O)[C@H](C)/C=C(\C)[C@@H](O)[C@@H](OC)C(=O)[C@H](C)C[C@H](C)/C=C/C=C/C=C/1C` is recorded as 12% (measured: TEAE leading to discontinuation; patients with advanced solid tumours; intravenous, dose not given, all patients, weekly).
`CCN(CCO)CCCC(C)Nc1ccnc2cc(Cl)ccc12` (centres unmarked) — result for “patients with adverse event”: 14% (measured: Anorexia grade 3; newly diagnosed glioblastoma patients; oral, 400 mg/dose, with radiotherapy and temozolomide).
Under “patients with ALP increase”, `C=CCNc1c(O)cc2c(O)c1C[C@@H](C)C[C@H](OC)[C@H](O)[C@@H](C)/C=C(\C)[C@H](OC(N)=O)[C@@H](OC)/C=C\C=C(/C)C(=O)N2` is recorded as 3% (unresectable or metastatic sarcoma; intravenous, 400 mg/m^2, grade 3-4 lab change).
`CCNCCCNC/C=C\CNCCCNCC` — result for “patients with drug-related TEAEs”: 45.7% (advanced refractory solid tumour patients; intravenous, dose not given, Gastrointestinal disorders).
`C=CC(=O)N1CC[C@H](n2nc(C#Cc3cc(OC)cc(OC)c3)c3c(N)ncnc32)C1`: “patients with ADR” 13.6% (measured: blood creatinine increased; hyperphosphataemia patients; oral, once daily, any grade, sevelamer users).
`CC(=O)c1c(C)c2cnc(Nc3ccc(C4CCN(CCS(C)(=O)=O)CC4)cn3)nc2n(C2CCCC2)c1=O` — result for “patients with GGT increased”: 21% (HR+/HER2- advanced breast cancer patients; oral, dose not given, all grades,, total).
Under “patients with adverse events”, `Nc1nc2cc(-c3ccc4ncc(C(=O)N5CCOCC5)n4c3)ccc2o1` is recorded as 7% (measured: Anemia, any cause, grade ≥3; patients with advanced solid tumours; dose not given).

Repeated from above:
`N[C@@H]1c2ccccc2OC12CCN(c1cnc3c(N4CCCc5ncccc54)n[nH]c3n1)CC2`: “patients with serious TEAE” 75% (advanced solid tumour patients; oral, 150 mg once daily).
